Published values pooled from the literature.
Parts stem from different laboratories: compare values within a part only.
Sequence of UniProt Q8IWQ3 (whole entry, looked up): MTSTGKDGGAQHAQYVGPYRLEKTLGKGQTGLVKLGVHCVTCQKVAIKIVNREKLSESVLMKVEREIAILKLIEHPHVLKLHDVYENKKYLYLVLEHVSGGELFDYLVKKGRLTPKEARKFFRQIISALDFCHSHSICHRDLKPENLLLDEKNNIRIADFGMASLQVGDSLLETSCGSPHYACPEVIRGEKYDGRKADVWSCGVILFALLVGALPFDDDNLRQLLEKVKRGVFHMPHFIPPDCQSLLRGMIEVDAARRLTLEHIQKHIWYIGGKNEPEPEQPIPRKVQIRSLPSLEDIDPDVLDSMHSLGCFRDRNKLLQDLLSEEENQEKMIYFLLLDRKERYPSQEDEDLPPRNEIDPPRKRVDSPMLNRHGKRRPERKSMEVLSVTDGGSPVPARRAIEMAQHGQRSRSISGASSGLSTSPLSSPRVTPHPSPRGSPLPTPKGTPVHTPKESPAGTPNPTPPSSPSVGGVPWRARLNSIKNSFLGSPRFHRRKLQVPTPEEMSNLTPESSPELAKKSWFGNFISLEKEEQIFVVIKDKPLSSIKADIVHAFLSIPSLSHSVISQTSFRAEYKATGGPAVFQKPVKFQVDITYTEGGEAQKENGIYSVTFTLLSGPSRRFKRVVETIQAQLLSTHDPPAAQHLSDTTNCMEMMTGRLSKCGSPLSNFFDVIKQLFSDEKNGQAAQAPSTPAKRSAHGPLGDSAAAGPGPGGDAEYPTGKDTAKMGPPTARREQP
Sequence of UniProt Q9C098 (whole entry, looked up): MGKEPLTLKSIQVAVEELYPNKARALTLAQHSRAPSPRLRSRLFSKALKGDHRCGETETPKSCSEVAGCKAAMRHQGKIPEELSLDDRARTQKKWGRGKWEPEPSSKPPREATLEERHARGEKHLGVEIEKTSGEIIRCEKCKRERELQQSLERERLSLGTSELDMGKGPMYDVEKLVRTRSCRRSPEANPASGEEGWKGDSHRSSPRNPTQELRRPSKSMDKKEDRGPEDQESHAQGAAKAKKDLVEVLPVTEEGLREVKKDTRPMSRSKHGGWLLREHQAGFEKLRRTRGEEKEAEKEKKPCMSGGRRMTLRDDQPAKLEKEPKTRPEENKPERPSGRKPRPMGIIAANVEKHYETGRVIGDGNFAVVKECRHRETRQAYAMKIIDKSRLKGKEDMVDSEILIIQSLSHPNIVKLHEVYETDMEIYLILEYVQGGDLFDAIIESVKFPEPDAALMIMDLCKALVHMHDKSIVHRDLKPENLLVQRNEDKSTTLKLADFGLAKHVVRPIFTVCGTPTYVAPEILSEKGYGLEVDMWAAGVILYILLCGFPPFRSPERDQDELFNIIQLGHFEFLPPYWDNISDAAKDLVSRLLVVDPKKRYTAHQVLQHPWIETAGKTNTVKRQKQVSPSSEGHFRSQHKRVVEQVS
Sequence of UniProt P36507 (whole entry, looked up): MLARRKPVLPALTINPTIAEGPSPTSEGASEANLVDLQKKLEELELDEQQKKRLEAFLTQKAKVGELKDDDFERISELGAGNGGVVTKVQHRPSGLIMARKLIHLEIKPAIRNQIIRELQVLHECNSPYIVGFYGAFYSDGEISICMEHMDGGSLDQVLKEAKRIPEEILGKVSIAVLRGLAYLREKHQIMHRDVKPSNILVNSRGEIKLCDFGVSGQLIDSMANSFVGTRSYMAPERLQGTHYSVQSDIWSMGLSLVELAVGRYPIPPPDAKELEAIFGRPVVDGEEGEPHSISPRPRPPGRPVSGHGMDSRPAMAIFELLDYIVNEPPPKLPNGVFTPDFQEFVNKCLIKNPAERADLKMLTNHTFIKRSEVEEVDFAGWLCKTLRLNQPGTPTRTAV
Sequence of UniProt Q9Y5S2 (whole entry, looked up): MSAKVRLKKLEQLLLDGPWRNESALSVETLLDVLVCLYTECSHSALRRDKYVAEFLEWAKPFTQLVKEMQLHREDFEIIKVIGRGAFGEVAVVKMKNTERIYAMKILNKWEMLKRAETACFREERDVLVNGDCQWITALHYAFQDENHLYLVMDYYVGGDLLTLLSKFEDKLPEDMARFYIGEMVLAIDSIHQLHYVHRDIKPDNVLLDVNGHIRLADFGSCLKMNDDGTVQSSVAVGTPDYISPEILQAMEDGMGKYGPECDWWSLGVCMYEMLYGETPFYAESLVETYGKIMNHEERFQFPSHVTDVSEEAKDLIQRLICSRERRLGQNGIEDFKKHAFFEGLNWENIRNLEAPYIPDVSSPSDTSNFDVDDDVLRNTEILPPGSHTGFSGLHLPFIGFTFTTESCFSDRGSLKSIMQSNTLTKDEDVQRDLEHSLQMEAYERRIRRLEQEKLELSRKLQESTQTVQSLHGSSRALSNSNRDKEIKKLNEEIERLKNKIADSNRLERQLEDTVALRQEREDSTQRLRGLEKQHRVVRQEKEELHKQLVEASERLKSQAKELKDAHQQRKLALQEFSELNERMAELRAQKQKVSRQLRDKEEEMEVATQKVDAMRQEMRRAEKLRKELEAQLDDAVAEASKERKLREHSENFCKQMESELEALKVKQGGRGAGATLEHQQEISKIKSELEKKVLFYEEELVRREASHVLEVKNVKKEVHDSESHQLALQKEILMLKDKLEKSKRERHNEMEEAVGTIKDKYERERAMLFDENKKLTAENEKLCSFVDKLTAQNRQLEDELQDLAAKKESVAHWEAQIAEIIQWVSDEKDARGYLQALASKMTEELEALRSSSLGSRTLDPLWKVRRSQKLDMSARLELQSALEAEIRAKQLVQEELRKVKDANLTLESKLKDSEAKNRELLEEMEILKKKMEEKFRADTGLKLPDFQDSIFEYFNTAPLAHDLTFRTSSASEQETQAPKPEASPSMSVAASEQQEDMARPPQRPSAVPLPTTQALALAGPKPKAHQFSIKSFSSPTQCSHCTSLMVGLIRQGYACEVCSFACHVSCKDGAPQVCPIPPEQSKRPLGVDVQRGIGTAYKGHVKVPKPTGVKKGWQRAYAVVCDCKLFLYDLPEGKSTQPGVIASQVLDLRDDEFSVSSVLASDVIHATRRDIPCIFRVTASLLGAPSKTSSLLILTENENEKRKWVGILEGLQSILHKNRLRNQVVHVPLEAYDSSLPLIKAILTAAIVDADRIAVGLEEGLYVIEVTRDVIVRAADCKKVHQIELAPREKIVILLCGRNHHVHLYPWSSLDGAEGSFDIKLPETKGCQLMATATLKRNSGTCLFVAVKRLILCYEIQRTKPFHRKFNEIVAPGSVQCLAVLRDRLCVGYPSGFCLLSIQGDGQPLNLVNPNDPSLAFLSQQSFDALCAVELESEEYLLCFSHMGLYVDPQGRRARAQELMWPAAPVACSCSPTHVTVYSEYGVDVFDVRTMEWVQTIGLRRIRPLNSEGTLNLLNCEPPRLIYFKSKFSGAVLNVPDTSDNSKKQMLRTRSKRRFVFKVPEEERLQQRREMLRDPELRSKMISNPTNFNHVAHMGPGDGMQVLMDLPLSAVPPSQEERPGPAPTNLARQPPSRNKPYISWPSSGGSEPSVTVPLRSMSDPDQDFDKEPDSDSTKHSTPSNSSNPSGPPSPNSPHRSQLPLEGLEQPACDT

Block 1
Structure (SMILES): CC#CC(=O)N1CCC[C@H]1c1nc(-c2ccc(C(=O)Nc3ccccn3)cc2)c2c(N)nccn12
Action: inhibitor
Concentration: 1 µM
target	assay	inhibition
Serine/threonine-protein kinase BRSK2 (BRSK2, Homo sapiens, UniProt Q8IWQ3)	enzyme activity	20%
Ephrin type-B receptor 1 (EPHB1, Homo sapiens, UniProt P54762)	enzyme activity	0%
Dual specificity mitogen-activated protein kinase kinase 2 (MAP2K2, Homo sapiens, UniProt P36507)	enzyme activity	8%
Serine/threonine-protein kinase DCLK3 (DCLK3, Homo sapiens, UniProt Q9C098)	enzyme activity	4%
Receptor-type tyrosine-protein kinase FLT3 (FLT3, Homo sapiens, UniProt P36888, K663Q)	enzyme activity	4%
Non-receptor tyrosine-protein kinase TYK2, JH1 domain (TYK2, Homo sapiens, UniProt P29597)	–	6%
Casein kinase II subunit alpha (CSNK2A1, Homo sapiens, UniProt P68400)	enzyme activity	10%
Serine/threonine-protein kinase MRCK beta (CDC42BPB, Homo sapiens, UniProt Q9Y5S2)	enzyme activity	0%

Block 2
Cell line: mouse MPNST tumor cells
Technique: high-content nuclear imaging
Refers to: cell number
Concentration: 10 µM
Time: 12 h
Notes: mean of 2 replicates
Relative to: plate mean
Reading: higher = more cells
Structure (SMILES)	nuclei count [z-score]
CN(C)CCn1cc(S(=O)(=O)c2cccc(F)c2)c2cccnc21	1.85
CN1CCN(C(=O)CNC2CC2c2ccc(OCc3ccccc3)cc2)CC1 (stereo not drawn)	0.951
CC1Cc2ccccc2N1NC(=O)c1ccc(Cl)c(S(N)(=O)=O)c1 (stereo not drawn)	-0.561
CC(NCCC(c1ccccc1)c1ccccc1)c1ccccc1 (stereo not drawn)	-5.22
COCCOCc1ccc(-c2cc3onc(-c4ccccc4)c3c(=O)n2C)cc1	1.88

Block 3
SMILES: CS(=O)(=O)NCC[C@H](NC(=O)c1cncc2c1cnn2-c1ccc(F)cc1)c1ccnc(S(C)(=O)=O)c1
Concentration: 1 µM
target	assay	remaining binding
Receptor-type tyrosine-protein kinase FLT3 (FLT3, Homo sapiens, UniProt P36888, K663Q)	cell-free assay, competition with immobilised ligand	100%
Calcium/calmodulin-dependent protein kinase type IV (CAMK4, Homo sapiens, UniProt Q16566)	cell-free assay, competition with immobilised ligand	100%
Serine/threonine-protein kinase SIK1 (SIK1, Homo sapiens, UniProt P57059)	competition binding	100%
Serine/threonine-protein kinase VRK2 (VRK2, Homo sapiens, UniProt Q86Y07)	cell-free assay, competition with immobilised ligand	100%
Receptor-type tyrosine-protein kinase FLT3 (FLT3, Homo sapiens, UniProt P36888)	cell-free assay, competition with immobilised ligand	93%
Tyrosine-protein kinase Fer (FER, Homo sapiens, UniProt P16591)	cell-free assay, competition with immobilised ligand	100%
Serine/threonine-protein kinase Nek7 (NEK7, Homo sapiens, UniProt Q8TDX7)	cell-free assay, competition with immobilised ligand	90%
Phosphatidylinositol 5-phosphate 4-kinase type-2 beta (PIP4K2B, Homo sapiens, UniProt P78356)	cell-free assay, competition with immobilised ligand	100%

Block 4
Target: ALK tyrosine kinase receptor (ALK, Homo sapiens, UniProt Q9UM73)
Sequence of UniProt Q9UM73 (whole entry, looked up): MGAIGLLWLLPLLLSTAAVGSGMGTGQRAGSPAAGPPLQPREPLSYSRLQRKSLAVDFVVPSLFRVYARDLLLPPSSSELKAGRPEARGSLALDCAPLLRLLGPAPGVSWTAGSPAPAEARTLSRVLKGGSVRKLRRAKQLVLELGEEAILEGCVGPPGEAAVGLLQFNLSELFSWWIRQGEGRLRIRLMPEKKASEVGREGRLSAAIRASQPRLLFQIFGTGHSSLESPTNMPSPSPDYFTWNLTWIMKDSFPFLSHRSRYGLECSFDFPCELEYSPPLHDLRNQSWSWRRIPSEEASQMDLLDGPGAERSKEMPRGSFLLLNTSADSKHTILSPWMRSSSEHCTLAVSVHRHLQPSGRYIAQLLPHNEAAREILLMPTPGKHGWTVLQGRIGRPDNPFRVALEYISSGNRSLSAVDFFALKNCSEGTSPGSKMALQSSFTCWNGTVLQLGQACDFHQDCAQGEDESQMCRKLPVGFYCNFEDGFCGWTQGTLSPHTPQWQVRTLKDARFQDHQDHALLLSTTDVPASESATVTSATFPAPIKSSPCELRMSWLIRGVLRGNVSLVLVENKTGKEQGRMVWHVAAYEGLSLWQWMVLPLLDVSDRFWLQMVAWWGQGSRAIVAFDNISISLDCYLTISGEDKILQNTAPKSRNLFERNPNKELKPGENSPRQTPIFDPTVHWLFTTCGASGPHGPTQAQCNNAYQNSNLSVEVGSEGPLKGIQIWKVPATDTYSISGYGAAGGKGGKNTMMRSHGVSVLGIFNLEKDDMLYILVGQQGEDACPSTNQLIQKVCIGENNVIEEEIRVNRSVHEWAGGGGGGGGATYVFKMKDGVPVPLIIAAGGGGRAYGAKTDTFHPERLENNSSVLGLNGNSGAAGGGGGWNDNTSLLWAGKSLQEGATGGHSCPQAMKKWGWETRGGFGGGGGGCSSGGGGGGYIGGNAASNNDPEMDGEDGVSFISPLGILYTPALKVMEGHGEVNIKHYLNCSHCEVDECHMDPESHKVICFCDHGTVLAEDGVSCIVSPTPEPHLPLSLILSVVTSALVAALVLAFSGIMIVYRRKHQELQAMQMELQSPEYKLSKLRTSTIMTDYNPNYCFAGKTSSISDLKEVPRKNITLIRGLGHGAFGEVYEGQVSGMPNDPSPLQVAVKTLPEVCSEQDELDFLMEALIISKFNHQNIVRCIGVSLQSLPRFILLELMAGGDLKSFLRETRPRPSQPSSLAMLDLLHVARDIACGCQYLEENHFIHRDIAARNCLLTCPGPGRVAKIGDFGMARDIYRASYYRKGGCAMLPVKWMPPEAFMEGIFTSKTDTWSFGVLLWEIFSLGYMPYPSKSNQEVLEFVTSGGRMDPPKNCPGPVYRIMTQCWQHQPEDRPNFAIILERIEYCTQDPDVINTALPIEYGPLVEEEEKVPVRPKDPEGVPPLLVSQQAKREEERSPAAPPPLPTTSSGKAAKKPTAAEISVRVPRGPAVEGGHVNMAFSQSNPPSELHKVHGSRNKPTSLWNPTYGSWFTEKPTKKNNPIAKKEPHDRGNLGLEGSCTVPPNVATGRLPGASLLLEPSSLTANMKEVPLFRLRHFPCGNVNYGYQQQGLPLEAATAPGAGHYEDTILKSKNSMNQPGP
Observed: enzyme activity
Action: inhibitor
Concentration: 0.5 µM
Relative to: control
Compound	remaining activity
O=C(CCCc1ccc(-c2ccccc2F)cc1)Nc1ccc(O)cc1	97%
Cn1c2ccccc2c2c3c(c4c5ccccc5n(CCC#N)c4c21)CNC3=O	12.2%
COc1ccc(CNC(=O)Nc2ncc([N+](=O)[O-])s2)cc1	100%
C#Cc1cccc(Nc2ncnc3cc(OCCOC)c(OCCOC)cc23)c1	86.7%
CC(C)[C@H](CO)Nc1nc(Nc2cc(N)cc(Cl)c2)c2ncn(C(C)C)c2n1	79.6%
N#CC(C#N)=C(N)/C(C#N)=C/c1ccc(O)cc1	109%
O=C(Nc1cccc(Nc2cc(Nc3cccc(C(F)(F)F)c3)ncn2)c1)C1CC1	112%
Nc1ncnc2n[nH]c(Nc3ccc(F)cc3)c12	88.9%
NCCNc1ncc(C(N)=O)c(Nc2cccc(C(F)(F)F)c2)n1	80.1%
Cn1sc(=O)n(Cc2ccccc2)c1=O	94.1%
OCC(O)CCON=C1C(c2c(O)[nH]c3ccccc23)=Nc2ccccc21 (stereo not drawn)	38.1%
COc1cc2ncnc(Nc3ccc(Oc4ccccc4)cc3)c2cc1OC	109%
CN(C)c1ccc(C=C2C(=O)Nc3ccccc32)cc1	99.7%
CCOC(=O)c1c(C)[nH]c(/C=C2\C(=O)Nc3ccccc32)c1C	79.2%
COc1ccc(OC)c2c(=S)c3ccccc3[nH]c12	105%

Excerpt of the above (block 4):
Compound	remaining activity
Nc1ncnc2n[nH]c(Nc3ccc(F)cc3)c12	88.9%
COc1cc2ncnc(Nc3ccc(Oc4ccccc4)cc3)c2cc1OC	109%
Cn1c2ccccc2c2c3c(c4c5ccccc5n(CCC#N)c4c21)CNC3=O	12.2%
C#Cc1cccc(Nc2ncnc3cc(OCCOC)c(OCCOC)cc23)c1	86.7%
O=C(CCCc1ccc(-c2ccccc2F)cc1)Nc1ccc(O)cc1	97%
